Assay results gathered from unrelated publications.
A part holds a random share of what one study measured.

Sample 1
Cell line: mouse MPNST tumor cells
Technique: high-content nuclear imaging
Item: cell number
Concentration: 10 µM
Time: 12 h
Notes: mean of 2 replicates
Reference: plate mean
Direction: higher = more cells
Structure (SMILES) | nuclei count [z-score]
CCOc1ccccc1OCC1CNCCO1 (stereo not drawn) | -0.488
CCn1c(=O)c(-c2ccc(-c3cncs3)cc2Cl)cc2cnc(Nc3ccc(N4CCN(C)CC4)cc3)nc21 | 1.79
CN(C)CCOc1cc(-c2cn[nH]c2)ccc1NC(=O)C1COc2ccccc2O1 (stereo not drawn) | 0.993
COc1cccc2c1C(=O)c1c(O)c3c(c(O)c1C2=O)C[C@@](O)(C(=O)CO)C[C@@H]3O[C@H]1C[C@H](N)[C@@H](O)[C@H](C)O1 | -4.41
Cc1cc(C(C)(C)C)cc(C)c1CC1=NCCN1 | 2.07
O=c1[nH]c2cc(Cl)ccc2c(O)c1-c1cccc(Oc2ccccc2)c1 | 1.46
CCOC(=O)C1=C[C@]2(CC)CCCN3CCc4c(n1c1ccccc41)[C@@H]32 | 3.9
CN1CCN(c2ncc(-c3cc(Cl)cc(Cl)c3Cl)c(N)n2)CC1 | 0.788

Sample 2
Target: Histamine H2 receptor (HRH2, Homo sapiens, UniProt P25021)
Chain of UniProt P25021 (whole entry, looked up): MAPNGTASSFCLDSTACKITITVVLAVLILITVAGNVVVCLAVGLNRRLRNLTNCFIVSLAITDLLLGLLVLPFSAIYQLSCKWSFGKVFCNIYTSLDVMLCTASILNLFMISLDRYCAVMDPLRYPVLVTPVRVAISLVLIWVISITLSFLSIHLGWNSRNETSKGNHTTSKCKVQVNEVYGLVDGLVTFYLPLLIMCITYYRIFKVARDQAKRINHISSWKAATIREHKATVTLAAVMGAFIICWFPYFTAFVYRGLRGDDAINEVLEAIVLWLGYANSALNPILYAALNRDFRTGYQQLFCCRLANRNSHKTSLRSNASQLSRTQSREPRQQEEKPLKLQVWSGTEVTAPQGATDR
Observed: binding
Technique: radioligand binding
Concentration: 10 µM
SMILES | inhibition
CCOC(=O)c1cc2cc(-c3cc(C(=O)NCc4ccc(C(=O)O)cc4)nn3C)ccc2[nH]1 | -14.4%
CN1C(=O)[C@@H](N2CCc3cn(Cc4ccccc4)nc3C2=O)COc2ccccc21 | 11.9%
O=C(NC[C@@H]1[C@H]2CN(C(=O)OCc3cc(C(F)(F)F)cc(C(F)(F)F)c3)C[C@@H]12)c1ccc2[nH]nnc2c1 | 28.1%
COCCc1ccc(-c2c(C)nc3c(N4CCOCC4)ccnn23)cn1 | 12.9%
O=C(O)c1cc(-c2ccc(C3CCNCC3)cc2)c2ccc(-c3ccc(C(F)(F)F)cc3)cc2c1 | 28%
Cc1c(NC(=O)c2cc(C(N)=O)nc3cc(F)ccc23)c(C(F)(F)F)nn1Cc1ccc(C(C)(C)C)cc1 | 32.4%
COc1cc(-c2cn(C3CCc4ccccc4N(CC(F)(F)F)C3=O)nn2)ccc1-n1ccc(C)n1 (stereo not drawn) | 4.13%

Sample 3
Target: Dual specificity protein kinase CLK1 (CLK1, Homo sapiens, UniProt P49759)
Observed: enzyme activity
Action: inhibitor
Concentration: 0.5 µM
Reference: control
Target sequence (P49759 1-484): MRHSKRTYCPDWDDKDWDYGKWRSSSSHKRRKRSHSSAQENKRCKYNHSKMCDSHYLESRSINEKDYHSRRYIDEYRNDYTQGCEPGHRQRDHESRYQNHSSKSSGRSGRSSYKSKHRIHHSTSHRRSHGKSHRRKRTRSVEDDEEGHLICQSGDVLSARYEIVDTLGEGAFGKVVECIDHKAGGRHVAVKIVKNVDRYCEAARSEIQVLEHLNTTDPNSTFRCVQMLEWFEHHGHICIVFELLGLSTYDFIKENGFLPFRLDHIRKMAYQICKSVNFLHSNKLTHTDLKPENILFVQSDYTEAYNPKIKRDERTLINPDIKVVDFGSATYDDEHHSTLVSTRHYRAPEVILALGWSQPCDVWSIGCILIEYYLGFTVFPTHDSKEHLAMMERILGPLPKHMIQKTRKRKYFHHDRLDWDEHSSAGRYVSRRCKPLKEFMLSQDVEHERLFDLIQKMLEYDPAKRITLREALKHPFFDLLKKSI
Compound | remaining activity
CO[C@H]1C[C@@H]2CC[C@@H](C)[C@@](O)(O2)C(=O)C(=O)N2CCCC[C@H]2C(=O)O[C@H]([C@H](C)C[C@@H]2CC[C@@H](O)[C@H](OC)C2)CC(=O)[C@H](C)/C=C(\C)[C@@H](O)[C@@H](OC)C(=O)[C@H](C)C[C@H](C)/C=C/C=C/C=C/1C | 107%
COc1ccc(OC)c2c(=S)c3ccccc3[nH]c12 | 98.4%
Cc1nc(-c2ccccc2)c(-c2ccncc2)o1 | 105%
O=C(O)c1ccc2c3c1cccc3c(=O)n1c3ccccc3nc21 | 93.8%
Cc1ccc(NC(=O)c2ccc(CN3CCN(C)CC3)cc2)cc1Nc1nc(-c2cccnc2)cs1 | 101%
CCOC(=O)c1c(C)[nH]c(/C=C2\C(=O)Nc3ccccc32)c1C | 98.2%
OCC(O)CCON=C1C(c2c(O)[nH]c3ccccc23)=Nc2ccccc21 (stereo not drawn) | 36.6%
O=c1c2ccccc2[nH]c(=S)n1CCN1CCC(=C(c2ccc(F)cc2)c2ccc(F)cc2)CC1 | 113%
O=C1NC(=O)C(c2cn(CCCn3ccnc3)c3ccccc23)=C1Nc1ccccc1 | 43.3%
COc1cc2ncnc(Nc3ccc(F)c(Cl)c3)c2cc1OCCCN1CCOCC1 | 105%
Nc1ccc2ncnc(NCCc3ccc(Oc4ccccc4)cc3)c2c1 | 101%
O=C(Nc1cccc(Nc2cc(Nc3cccc(C(F)(F)F)c3)ncn2)c1)C1CC1 | 107%
O=S(=O)(c1cccc2cnccc12)N1CCCNCC1 | 96.3%
CNC(=O)c1cc(Oc2ccc(NC(=O)Nc3ccc(Cl)c(C(F)(F)F)c3)cc2)ccn1 | 97.7%
COc1ccc(CNC(=O)Nc2ncc([N+](=O)[O-])s2)cc1 | 106%

Sample 4
Organism: Plasmodium berghei
Action: inhibitor
Cell line: Huh-7
Strain: GFP-expressing, liver stage
Concentration: 10 µM
Time: 24 h
Reference: untreated control
SMILES | infection rate
C[C@H](CCC(=O)O)[C@H]1CC[C@H]2[C@@H]3[C@@H](O)C[C@@H]4C[C@H](O)CC[C@]4(C)[C@H]3CC[C@]12C | 86.4%
CN1CCN(CCCN2c3ccccc3Sc3ccc(C(F)(F)F)cc32)CC1 | 38.2%
CN1CCN(CC/C=C2/c3ccccc3Sc3ccc(S(=O)(=O)N(C)C)cc32)CC1 | 33.5%
CC[C@]1(O)C[C@@H]2CN(CCc3c([nH]c4ccccc34)[C@@](C(=O)OC)(c3cc4c(cc3OC)N(C)[C@H]3[C@@](O)(C(=O)OC)[C@H](OC(C)=O)[C@]5(CC)C=CCN6CC[C@]43[C@@H]65)C2)C1 | 53.2%
CN(C)CCc1c[nH]c2ccc(C[C@H]3COC(=O)N3)cc12 | 98.4%
C[C@]12C=CC(=O)C=C1CC[C@@H]1[C@@H]2[C@@H](O)C[C@@]2(C)[C@H]1CC[C@]2(O)C(=O)COP(=O)(O)O | 119%
COc1cc([C@@H]2c3cc4c(cc3[C@@H](O[C@@H]3O[C@@H]5CO[C@@H](c6cccs6)O[C@H]5[C@H](O)[C@H]3O)[C@H]3COC(=O)[C@H]23)OCO4)cc(OC)c1O | 26.6%
O=C(O)c1cn(-c2ccc(F)cc2)c2cc(N3CCNCC3)c(F)cc2c1=O | 103%
Cc1ncc([N+](=O)[O-])n1CC(O)CCl (stereo not drawn) | 106%

A few entries again (sample 3):
Compound | remaining activity
CCOC(=O)c1c(C)[nH]c(/C=C2\C(=O)Nc3ccccc32)c1C | 98.2%
O=C1NC(=O)C(c2cn(CCCn3ccnc3)c3ccccc23)=C1Nc1ccccc1 | 43.3%
O=S(=O)(c1cccc2cnccc12)N1CCCNCC1 | 96.3%
Nc1ccc2ncnc(NCCc3ccc(Oc4ccccc4)cc3)c2c1 | 101%
